Experimental data pooled from the literature.
Compare with care: the assays were run in different laboratories. Values joined by “and” are separate records of one study, mostly repeats; a detail may differ. ± marks the error that the study gave.
Luciferin 4-monooxygenase: Luciferin 4-monooxygenase (Photinus pyralis, UniProt P08659)
Chain of UniProt P08659 (whole entry, looked up): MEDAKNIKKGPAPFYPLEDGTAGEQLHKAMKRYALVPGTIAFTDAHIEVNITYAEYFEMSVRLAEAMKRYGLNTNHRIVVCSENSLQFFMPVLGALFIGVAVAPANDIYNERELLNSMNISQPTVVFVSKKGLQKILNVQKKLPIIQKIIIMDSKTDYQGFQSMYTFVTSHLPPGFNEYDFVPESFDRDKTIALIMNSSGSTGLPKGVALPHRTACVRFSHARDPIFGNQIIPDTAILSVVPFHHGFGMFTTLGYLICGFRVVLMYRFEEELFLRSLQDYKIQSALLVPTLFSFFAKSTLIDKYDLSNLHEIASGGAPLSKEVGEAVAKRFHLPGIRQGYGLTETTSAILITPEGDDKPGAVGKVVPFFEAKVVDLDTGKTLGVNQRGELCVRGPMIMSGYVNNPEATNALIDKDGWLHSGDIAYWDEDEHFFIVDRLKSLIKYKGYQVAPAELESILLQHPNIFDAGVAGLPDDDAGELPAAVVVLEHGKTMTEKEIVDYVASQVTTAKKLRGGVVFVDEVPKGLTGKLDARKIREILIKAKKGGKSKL
Palmitoyl-protein thioesterase 1: Palmitoyl-protein thioesterase 1 (Homo sapiens, UniProt P50897)
Chain of UniProt P50897 (whole entry, looked up): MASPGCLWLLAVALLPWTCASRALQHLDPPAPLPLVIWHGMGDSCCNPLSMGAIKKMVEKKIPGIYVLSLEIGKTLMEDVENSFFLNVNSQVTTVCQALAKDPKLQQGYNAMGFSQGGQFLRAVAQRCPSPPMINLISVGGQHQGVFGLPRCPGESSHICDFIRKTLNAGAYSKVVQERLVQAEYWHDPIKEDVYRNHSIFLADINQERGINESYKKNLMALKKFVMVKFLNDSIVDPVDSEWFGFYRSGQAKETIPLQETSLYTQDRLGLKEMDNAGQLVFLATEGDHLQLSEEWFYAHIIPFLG
DRD1: D(1A) dopamine receptor (DRD1, Homo sapiens, UniProt P21728)
Chain of UniProt Q13370 (whole entry, looked up): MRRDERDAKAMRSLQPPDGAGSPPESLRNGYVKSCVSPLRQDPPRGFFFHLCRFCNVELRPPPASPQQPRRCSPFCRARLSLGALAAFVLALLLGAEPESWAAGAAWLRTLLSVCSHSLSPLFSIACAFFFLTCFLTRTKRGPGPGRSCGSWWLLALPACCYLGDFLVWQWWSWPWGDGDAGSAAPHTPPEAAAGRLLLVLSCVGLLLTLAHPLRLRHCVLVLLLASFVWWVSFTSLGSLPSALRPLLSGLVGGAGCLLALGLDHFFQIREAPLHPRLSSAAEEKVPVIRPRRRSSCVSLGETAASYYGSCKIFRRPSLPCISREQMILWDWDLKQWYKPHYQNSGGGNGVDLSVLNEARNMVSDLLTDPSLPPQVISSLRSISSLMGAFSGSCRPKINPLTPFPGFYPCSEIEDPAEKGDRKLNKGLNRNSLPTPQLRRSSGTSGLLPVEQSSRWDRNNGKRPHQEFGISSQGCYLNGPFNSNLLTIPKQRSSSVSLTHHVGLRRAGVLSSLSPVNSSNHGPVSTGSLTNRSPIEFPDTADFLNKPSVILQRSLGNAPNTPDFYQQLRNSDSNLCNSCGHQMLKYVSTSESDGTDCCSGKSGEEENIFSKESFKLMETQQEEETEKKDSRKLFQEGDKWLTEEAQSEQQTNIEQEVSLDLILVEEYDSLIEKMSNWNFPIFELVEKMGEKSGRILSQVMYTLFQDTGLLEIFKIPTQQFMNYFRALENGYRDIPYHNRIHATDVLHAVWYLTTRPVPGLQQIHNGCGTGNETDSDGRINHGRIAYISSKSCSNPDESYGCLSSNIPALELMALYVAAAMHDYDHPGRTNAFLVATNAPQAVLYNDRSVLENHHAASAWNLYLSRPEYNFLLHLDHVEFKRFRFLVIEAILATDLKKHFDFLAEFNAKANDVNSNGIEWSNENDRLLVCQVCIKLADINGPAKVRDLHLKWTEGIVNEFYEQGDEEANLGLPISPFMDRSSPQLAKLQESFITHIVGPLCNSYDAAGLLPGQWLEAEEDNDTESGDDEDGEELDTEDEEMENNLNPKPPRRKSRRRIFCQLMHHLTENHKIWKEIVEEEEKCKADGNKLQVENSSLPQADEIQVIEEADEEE
Chain of UniProt P21728 (whole entry, looked up): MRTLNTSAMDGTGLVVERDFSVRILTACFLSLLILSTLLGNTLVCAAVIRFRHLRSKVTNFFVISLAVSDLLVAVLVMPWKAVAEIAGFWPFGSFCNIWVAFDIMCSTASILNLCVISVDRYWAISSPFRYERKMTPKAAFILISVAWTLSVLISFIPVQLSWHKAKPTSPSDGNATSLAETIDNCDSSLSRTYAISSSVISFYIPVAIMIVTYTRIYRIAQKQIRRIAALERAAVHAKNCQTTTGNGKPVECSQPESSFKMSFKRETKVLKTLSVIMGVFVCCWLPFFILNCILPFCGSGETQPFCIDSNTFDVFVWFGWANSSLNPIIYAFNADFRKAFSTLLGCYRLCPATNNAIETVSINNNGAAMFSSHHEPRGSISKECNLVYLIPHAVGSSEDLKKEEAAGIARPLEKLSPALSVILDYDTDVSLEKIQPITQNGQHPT
Chain of UniProt P07237 (whole entry, looked up): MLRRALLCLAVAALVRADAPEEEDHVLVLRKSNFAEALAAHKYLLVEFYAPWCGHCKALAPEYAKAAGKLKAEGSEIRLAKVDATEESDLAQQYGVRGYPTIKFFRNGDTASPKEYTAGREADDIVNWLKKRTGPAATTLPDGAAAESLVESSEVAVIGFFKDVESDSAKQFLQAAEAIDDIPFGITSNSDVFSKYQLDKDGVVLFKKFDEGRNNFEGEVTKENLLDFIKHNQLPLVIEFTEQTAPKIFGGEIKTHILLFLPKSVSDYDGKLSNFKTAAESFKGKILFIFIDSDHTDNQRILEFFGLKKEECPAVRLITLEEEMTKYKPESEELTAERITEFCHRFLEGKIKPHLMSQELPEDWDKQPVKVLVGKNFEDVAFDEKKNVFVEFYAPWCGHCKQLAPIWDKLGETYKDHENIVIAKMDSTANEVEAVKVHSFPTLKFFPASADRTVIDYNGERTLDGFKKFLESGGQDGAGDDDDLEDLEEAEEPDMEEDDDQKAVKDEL
Chain of UniProt P06396 (whole entry, unmodified, looked up): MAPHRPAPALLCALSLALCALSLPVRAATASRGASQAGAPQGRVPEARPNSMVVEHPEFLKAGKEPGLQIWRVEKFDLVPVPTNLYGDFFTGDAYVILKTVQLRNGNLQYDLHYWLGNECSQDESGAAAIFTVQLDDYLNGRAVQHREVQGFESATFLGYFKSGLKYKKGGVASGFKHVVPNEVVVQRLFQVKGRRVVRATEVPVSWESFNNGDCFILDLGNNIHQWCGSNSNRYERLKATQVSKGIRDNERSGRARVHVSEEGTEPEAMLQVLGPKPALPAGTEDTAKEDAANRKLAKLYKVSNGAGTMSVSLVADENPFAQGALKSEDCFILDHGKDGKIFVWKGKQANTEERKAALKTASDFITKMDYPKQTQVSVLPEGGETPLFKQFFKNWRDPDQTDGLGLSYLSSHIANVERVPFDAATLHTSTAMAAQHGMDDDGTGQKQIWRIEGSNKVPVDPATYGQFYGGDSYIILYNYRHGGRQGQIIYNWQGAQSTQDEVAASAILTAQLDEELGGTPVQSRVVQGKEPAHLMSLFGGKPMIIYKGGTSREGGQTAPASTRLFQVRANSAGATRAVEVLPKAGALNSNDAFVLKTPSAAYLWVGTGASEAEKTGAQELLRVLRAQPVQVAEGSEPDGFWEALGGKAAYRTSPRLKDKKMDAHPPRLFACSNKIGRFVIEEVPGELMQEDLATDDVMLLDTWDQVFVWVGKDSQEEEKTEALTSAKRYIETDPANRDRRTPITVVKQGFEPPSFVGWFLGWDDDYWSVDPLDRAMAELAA
Chain of UniProt Q16566 (whole entry, looked up): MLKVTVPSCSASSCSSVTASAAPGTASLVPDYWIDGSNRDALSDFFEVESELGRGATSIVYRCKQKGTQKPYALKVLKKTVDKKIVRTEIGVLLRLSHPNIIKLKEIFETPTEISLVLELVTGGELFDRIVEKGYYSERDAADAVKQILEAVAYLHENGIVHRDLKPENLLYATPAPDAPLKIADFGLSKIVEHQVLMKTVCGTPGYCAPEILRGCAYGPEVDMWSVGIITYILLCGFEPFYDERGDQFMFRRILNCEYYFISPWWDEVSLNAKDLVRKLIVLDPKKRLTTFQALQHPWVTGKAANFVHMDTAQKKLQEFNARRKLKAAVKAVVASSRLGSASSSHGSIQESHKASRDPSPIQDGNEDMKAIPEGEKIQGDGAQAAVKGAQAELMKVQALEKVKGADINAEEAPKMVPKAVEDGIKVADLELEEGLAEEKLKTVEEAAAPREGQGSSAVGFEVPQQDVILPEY
Chain of UniProt P05164 (whole entry, looked up): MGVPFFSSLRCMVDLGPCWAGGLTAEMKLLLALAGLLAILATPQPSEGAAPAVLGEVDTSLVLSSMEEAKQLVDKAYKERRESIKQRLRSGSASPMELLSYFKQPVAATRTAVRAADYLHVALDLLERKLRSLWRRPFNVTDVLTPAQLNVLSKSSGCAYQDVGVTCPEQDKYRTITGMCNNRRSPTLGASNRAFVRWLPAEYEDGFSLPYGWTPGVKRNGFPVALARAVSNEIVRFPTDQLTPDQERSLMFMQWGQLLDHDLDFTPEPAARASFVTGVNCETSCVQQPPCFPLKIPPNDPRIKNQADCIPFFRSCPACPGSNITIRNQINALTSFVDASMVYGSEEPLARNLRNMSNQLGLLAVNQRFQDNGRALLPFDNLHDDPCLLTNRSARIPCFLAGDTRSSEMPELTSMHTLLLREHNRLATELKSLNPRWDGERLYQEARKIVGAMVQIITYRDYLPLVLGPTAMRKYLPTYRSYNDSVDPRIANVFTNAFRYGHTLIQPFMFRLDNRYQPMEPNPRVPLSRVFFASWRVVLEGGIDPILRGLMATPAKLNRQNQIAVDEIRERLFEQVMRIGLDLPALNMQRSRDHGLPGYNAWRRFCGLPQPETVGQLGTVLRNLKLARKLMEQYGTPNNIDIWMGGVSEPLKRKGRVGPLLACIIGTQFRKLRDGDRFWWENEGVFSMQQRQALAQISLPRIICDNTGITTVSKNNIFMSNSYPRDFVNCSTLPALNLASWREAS

| Compound | target or system | test | test system | setting | inhibition |
| --- | --- | --- | --- | --- | --- |
| Cc1cc(NS(=O)(=O)c2ccc(N=NN(C)O)cc2)no1 | α-glucosidase, rat intestine | enzyme activity | – | 60 µg/mL, added: 4-nitrophenyl α-D-glucopyranoside | 15 ± 0.29% |
| Cc1nc(-c2ccc(C(=O)N3CCC(C)CC3)cc2)cs1 | Luciferin 4-monooxygenase | luciferase luminescence, inhibitor | cell-free | 50 µM, counter-screen | 25% |
| CCc1nn(C)c2nc(-c3ccc(C(=O)O)cc3)nc(NCc3ccc(F)cc3)c12 | PDE3B (Homo sapiens, UniProt Q13370) | enzyme activity | – | 10 µM, added: [3H]cAMP | -0.4% |
| Nc1cc(C(Cl)=C(Cl)Cl)c(S(N)(=O)=O)cc1S(N)(=O)=O | Palmitoyl-protein thioesterase 1 | Spectrum Collection screen | – | concentration not given, added: substrate 20 µM | 60.4% |
| CCCCCC/C=C1\C=C(C(F)(F)F)c2cc3c(cc21)OCO3 | P4HB (Homo sapiens, UniProt P07237) | insulin reduction, inhibitor | – | concentration not given, 37 °C, low micromolar preincubation | inhibited |
| Cc1cccc(N(O)N=Nc2ccc(S(=O)(=O)Nc3onc(C)c3C)cc2)c1 | α-glucosidase, rat intestine | enzyme activity | – | 180 µg/mL, added: 4-nitrophenyl α-D-glucopyranoside | 30 ± 0.04% |
| Cc1ncccc1OC[C@@H]1CN(CCN2CCc3ccccc32)CCO1 | DRD1 | radioligand binding | – | concentration not given, added: [3H]SCH23390 | 41.3% |
| Cc1noc(NS(=O)(=O)c2ccc(N=NN(O)c3ccccc3)cc2)c1C | α-glucosidase, rat intestine | enzyme activity | – | 300 µg/mL, added: 4-nitrophenyl α-D-glucopyranoside | 57.5 ± 0.29% |
| Nc1ncnc2[nH]cnc12 | Gelsolin, N184K peptide (GSN, Homo sapiens, UniProt P06396) | amyloid aggregation, ThT fluorescence | – | 100 µM, 12 h, 37 °C, cpd to peptide 1:1 molar | 77% |
| Cc1ncc([N+](=O)[O-])n1CC(O)CCl (stereo not shown) | Palmitoyl-protein thioesterase 1 | Spectrum Collection screen | – | concentration not given, added: substrate 20 µM | 78% |
| COc1cc(C(=O)NS(=O)(=O)c2ccccc2C)ccc1Cc1cn(C)c2ccc(NC(=O)OC3CCCC3)cc12 | Volume-regulated anion channel subunit LRRC8C, part LRRC8A IL1 chimera (LRRC8C, Homo sapiens, UniProt Q8TDW0, C43G/S11C) | ion current, inhibitor, whole-cell patch clamp | HCT LRRC8-/- cells | 1 µM, +100 mV | 1.16% and -1.8% and 4.83% and -1.1% and 5.3% |
| O=C1Nc2ccccc2C1=O | THP-1 | pyroptotic LDH release | – | 2 µM, 40 min, added: LPS then nigericin | 2.15% |
| Cc1noc(NS(=O)(=O)c2ccc(N=NN(C)O)cc2)c1C | α-glucosidase, rat intestine | enzyme activity | – | 60 µg/mL, added: 4-nitrophenyl α-D-glucopyranoside | 12.25 ± 0.013% |
| CC1CCN(c2nccnc2Oc2ccc(C(=O)NCCC3=CCCCC3)cc2)CC1 | Luciferin 4-monooxygenase | luciferase luminescence, inhibitor | cell-free | 50 µM, counter-screen | 1.41% |
| Cc1cccc(N(O)N=Nc2ccc(S(=O)(=O)Nc3cc(C)on3)cc2)c1 | α-glucosidase, rat intestine | enzyme activity | – | 180 µg/mL, added: 4-nitrophenyl α-D-glucopyranoside | 30 ± 2.09% |
| c1cncc(OC[C@@H]2CN(CCN3CCc4ccccc43)CCO2)c1 | HTR1E (Homo sapiens, UniProt P28566) | radioligand binding | – | concentration not given, added: [3H]5-HT | -10.6% |
| [H]/N=C(/N)c1ccc(NCc2nc3cc(C(=O)N(CCC(=O)O)c4ccccn4)ccc3n2C)cc1 | PROC (Homo sapiens, UniProt P04070) | – | – | concentration not given | > 90% |
| Cc1nn(-c2nc3c(F)cc(F)cc3s2)c(O)c1C(c1ccc(C(F)(F)F)cc1)c1c(C)nn(-c2nc3c(F)cc(F)cc3s2)c1O | CGAS (Homo sapiens, UniProt Q8N884) | enzyme activity, inhibitor, pyrophosphatase-coupled | – | 100 µM, 1.5 h, added: HT-DNA | 95.8% |
| CC(=O)c1ccco1 | THP-1 | pyroptotic LDH release | – | 2 µM, 40 min, added: LPS then nigericin | 7.87% |
| Cc1ccc(OC[C@H]2CN(CCN3CCc4ccccc43)CCO2)cn1 | DRD1 | radioligand binding | – | concentration not given, added: [3H]SCH23390 | 13.3% |
| CC[C@@H]1[C@H](F)C(=O)N[C@@H]1COc1nccc2cc(C(N)=O)c(OC)cc12 | CAMK4 (Homo sapiens, UniProt Q16566) | ATP-site probe binding, ActivX profiling | THP-1 cell lysate | 0.04 mM, Lys2 site | 19.1% |
| NC/C(=C\F)COc1cccc(Cn2c(=S)[nH]c(=O)c3[nH]cnc32)c1 | Myeloperoxidase (MPO, Homo sapiens, UniProt P05164) | enzyme activity | – | 1 µM | 99.1% |

Some of these lines once more:
| Compound | target or system | test | test system | setting | inhibition |
| --- | --- | --- | --- | --- | --- |
| Cc1ncccc1OC[C@@H]1CN(CCN2CCc3ccccc32)CCO1 | DRD1 | radioligand binding | – | concentration not given, added: [3H]SCH23390 | 41.3% |
| Cc1noc(NS(=O)(=O)c2ccc(N=NN(O)c3ccccc3)cc2)c1C | α-glucosidase, rat intestine | enzyme activity | – | 300 µg/mL, added: 4-nitrophenyl α-D-glucopyranoside | 57.5 ± 0.29% |
